Assay results from different studies.
Lines come from different studies, so protocols differ.
PPARG ligand-binding domain: Peroxisome proliferator-activated receptor gamma, ligand-binding domain (PPARG, Homo sapiens, UniProt P37231)
Chain of UniProt P37231 (whole entry, looked up): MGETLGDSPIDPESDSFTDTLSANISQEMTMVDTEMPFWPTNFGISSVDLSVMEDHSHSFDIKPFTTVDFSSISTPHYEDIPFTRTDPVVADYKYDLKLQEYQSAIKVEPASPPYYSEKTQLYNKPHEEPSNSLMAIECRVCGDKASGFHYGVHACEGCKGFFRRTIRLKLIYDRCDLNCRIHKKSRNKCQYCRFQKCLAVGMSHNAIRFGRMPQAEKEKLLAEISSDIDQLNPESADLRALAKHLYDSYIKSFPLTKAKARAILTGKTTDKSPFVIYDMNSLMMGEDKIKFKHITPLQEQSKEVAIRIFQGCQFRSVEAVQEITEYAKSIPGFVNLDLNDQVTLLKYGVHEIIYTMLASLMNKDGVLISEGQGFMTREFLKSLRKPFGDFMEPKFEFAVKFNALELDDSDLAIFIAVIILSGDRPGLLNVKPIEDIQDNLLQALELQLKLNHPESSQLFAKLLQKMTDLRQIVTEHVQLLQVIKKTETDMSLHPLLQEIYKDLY
Chain of UniProt P11712 (whole entry, looked up): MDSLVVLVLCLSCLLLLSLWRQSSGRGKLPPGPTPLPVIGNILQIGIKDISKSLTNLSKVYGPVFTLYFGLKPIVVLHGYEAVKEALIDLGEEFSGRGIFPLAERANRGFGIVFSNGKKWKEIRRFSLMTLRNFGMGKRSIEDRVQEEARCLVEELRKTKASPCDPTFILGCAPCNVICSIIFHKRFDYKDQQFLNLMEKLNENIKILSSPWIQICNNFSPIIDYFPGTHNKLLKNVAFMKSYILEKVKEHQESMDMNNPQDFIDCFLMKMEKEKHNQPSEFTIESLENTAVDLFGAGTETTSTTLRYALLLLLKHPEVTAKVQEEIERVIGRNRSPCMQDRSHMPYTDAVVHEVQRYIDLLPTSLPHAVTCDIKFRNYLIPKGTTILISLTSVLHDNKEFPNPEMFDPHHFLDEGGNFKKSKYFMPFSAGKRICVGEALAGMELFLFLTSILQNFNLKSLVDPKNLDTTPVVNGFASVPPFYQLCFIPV

O=C1C2CC3CC1CC(C(=O)N1CCN(c4ccc([N+](=O)[O-])c5ncccc45)CC1)(C3)C2  mean revertant colonies (Salmonella typhimurium; Ames test; TA98; 0.05 µg/well, with S9): 8 colonies/well
C=C(NC(=O)c1csc(-c2nc3c(cc2O)-c2nc(cs2)C(=O)NC(C(C)O)C(=O)NC(=C(C)OC)c2nc(cs2)C(=O)NC2c4nc(cs4)C(=O)NC(COC(=O)c4c5c6c(cccc6n4O)COC(=O)C(OC4CC(C)(O)C(N(C)C)C(C)O4)C2OC5)c2nc-3cs2)n1)C(N)=O (stereo not shown)  Tmax (cynomolgus monkey, male, plasma; intravenous infusion, 1.5 mg/kg twice daily, 0 to 30 h): 13.8 min
COC1CN([C@H]2CC[C@H]([C@@]3(C)Oc4c(Cl)cc(C(=O)NCc5c(SC)cc(C)[nH]c5=O)c(C)c4O3)CC2)C1  log2 fold change (RNA-seq, measured: TMEM86B; human, whole blood; dose not given, 24 h; baseline: pretreatment baseline): 1.44
N#C[C@@H]1CC(F)(F)CN1C(=O)CNC(=O)c1ccnc2c(NC(=O)CCOCCOCCOCCOCCOCCOCCNC(=O)[C@H](CCCCNC(=O)CN3CCN(CC(=O)[O-])CCN(CC(=O)[O-])CCN(CC(=O)[O-])CC3)NC(=O)CCCc3ccc(I)cc3)cccc12.[177Lu+3]  tracer uptake (U-87 MG tumour model; host not given, tumour; 24 h, tumour-bearing): 3.5 %ID/g
O=C1NC2(CC2)COc2ncc(F)cc2[C@H]2COCCN2c2ccn3ncc1c3n2  numerical aberrations (CHL; 300 µg/mL, 4 h, with rat liver S9): 0%
CNC(=O)C1CCCN(C(=O)C2CC3CCC2N3C(=O)[C@@H]2C[C@@H](O)CN2C(=O)NCc2cccc(Cl)c2F)C1 (mixture of isomers)  IC50 (Cytochrome P450 2C9 (CYP2C9, Homo sapiens, UniProt P11712); enzyme activity, inhibitor; human, liver microsomes): > 50 µM
O=C(Nc1cnccc1-c1ccc([18F])cc1)c1ccnc(NC(=O)C2CC2)c1  SUV (FVB/NJ mice (both sexes), muscle; intravenous, dose not given, 120 min): 0.11
COc1cccc([C@H](C)NC(=O)c2ccc3c(Cc4cccc(OC(C)(C)C(=O)O)c4)c(C)n(C)c3c2)c1  IC50 (PPARG ligand-binding domain; reporter gene, luciferase reporter; HEK293T, Gal4-PPARγ LBD): 196 µM
C=CC(=O)Nc1cccc(Cn2ncc3cnc(Nc4cnn(CCOC)c4)nc32)c1  percent of control (CSNK1A1 human; binding, KINOMEscan; 100 nM; lower = stronger binding): 90%
CC(C)OCCOCc1ccc(OCC(O)CN(N=O)C(C)C)cc1 (stereo not shown)  revertant fold increase (Salmonella typhimurium; Ames test; TA1537; 1580 µg/plate, 30 % hamster S9; baseline: solvent control): 0.8 fold
Cc1c(Cc2cccc(OC(C)C(=O)O)c2)c2ccc(C(=O)NC(C)c3ccc(C4CC4)cc3)cc2n1C (mixture of isomers)  IC50 (PPARG ligand-binding domain; reporter gene, luciferase reporter; HEK293T, Gal4-PPARγ LBD): 2.08 µM
N#C[C@@H]1CC(F)(F)CN1C(=O)CNC(=O)c1ccnc2c(NC(=O)[C@H](CCCCNC(=O)CCOCCOCCOCCOCCOCCOCCNC(=O)CN3CCN(CC(=O)[O-])CCN(CC(=O)[O-])CCN(CC(=O)[O-])CC3)NC(=O)CCCc3ccc(I)cc3)cccc12.[177Lu+3]  tracer uptake (U-87 MG tumour model; host not given, heart; 96 h, tumour-bearing): 0.09 %ID/g
CCN(CC)CC#CCNc1ccnc2cc(Cl)ccc12  revertants (Salmonella typhimurium; mini-Ames test; TA100; 125.0 µg/well, without S9): 25 revertants/well

Some of these lines once more:
COc1cccc([C@H](C)NC(=O)c2ccc3c(Cc4cccc(OC(C)(C)C(=O)O)c4)c(C)n(C)c3c2)c1  IC50 (PPARG ligand-binding domain; reporter gene, luciferase reporter; HEK293T, Gal4-PPARγ LBD): 196 µM
